Results gathered from unrelated publications.
Protocols differ between the studies behind these lines. Numbers after ± are the reported error.
Histone chaperone ASF1A: Histone chaperone ASF1A (Homo sapiens, UniProt Q9Y294)
lecA: PA-I galactophilic lectin (lecA, Pseudomonas aeruginosa, UniProt Q05097)

CC[C@H](C)[C@H](NC(=O)[C@H](CCCNC(=N)N)NC(=O)NC[C@H](CCC(N)=O)NC(=O)NC[C@H](CCc1ccccc1)NC(=O)NC[C@H](CCCNC(=N)N)NC(=O)NC[C@H](Cc1ccc2ccccc2c1)NC(=O)[C@H](CCCCN)NC(=O)[C@H](CCC(=O)O)NC(C)=O)C(=O)N[C@@H](C)C(N)=O
binding enthalpy (Histone chaperone ASF1A; isothermal titration calorimetry; concentration not given, pH 7.5, 20 °C): -1.7 ± 0.2 kcal/mol

C#Cc1ccc(O[C@@H]2O[C@H](CO)[C@H](O)[C@H](O)[C@H]2O)cc1
ΔG (lecA; ITC; 5% DMSO): -7 ± 0.1 kcal/mol

CC[C@H](C)[C@@H]1NC(=O)[C@H](Cc2ccc(O)cc2)NC(=O)[C@@H](N)Cn2cc(nn2)C[C@@H](C(=O)N2CCC[C@H]2C(=O)N[C@@H](CC(C)C)C(=O)NCC(N)=O)NC(=O)[C@H](CC(N)=O)NC(=O)[C@H](CCC(N)=O)NC1=O
Emax (Oxytocin receptor (OXTR, Homo sapiens, UniProt P30559); inositol phosphate, agonist; HEK293): 80.4%

COC(=O)/C(C#N)=C/c1c(-c2ccc(C)cc2)c2c(N)ncnc2n1CCCO
fold resistance (Ribosomal protein S6 kinase alpha-3, C-terminal kinase domain (Rps6ka3, Mus musculus, UniProt P18654, C436V); kinase activity, inhibitor; reference: C436V mutant over wild type): ~1000 fold

CC[C@H](C)[C@H](NC(=O)[C@H](CCCNC(=N)N)NC(=O)[C@H](CCCCN)NC(=O)[C@@H](NC(=O)[C@H](C)NC(=O)[C@H](CCCNC(=N)N)NC(=O)[C@H](CCC(N)=O)NC(=O)[C@H](CO)NC(=O)[C@H](CCCCN)NC(=O)[C@H](CC(N)=O)NC(=O)[C@@H](N)CCCNC(=N)N)[C@@H](C)O)C(=O)N[C@@H](CO)C(=O)N[C@@H](Cc1c[nH]cn1)C(=O)N[C@@H](CCSC)C(=O)N1CCC[C@H]1C(=O)N[C@@H](CO)C(=O)N[C@@H](CCCNC(=N)N)C(=O)N1CCC[C@H]1C(=O)N[C@@H](CCC(=O)O)C(=O)N[C@@H](CC(C)C)C(=O)N[C@@H](CO)C(=O)N[C@@H](C)C(=O)N[C@H](C(=O)N[C@@H](C)C(=O)N[C@H](C(=O)N[C@@H](CC(=O)O)C(=O)N[C@@H](CC(C)C)C(=O)N[C@@H](CCCNC(=N)N)C(=O)N[C@@H](CCCCN)C(=O)N[C@@H](CC(=O)O)C(=O)N[C@@H](CCCCN)C(=O)N[C@@H](C)C(=O)N[C@@H](CCCCN)C(=O)N[C@@H](COP(=O)(O)O)C(=O)N[C@@H](CSC/C=C(\C)CC/C=C(\C)CCC=C(C)C)C(=O)OC)[C@@H](C)O)C(C)C
koff (14-3-3 protein zeta/delta (YWHAZ, Homo sapiens, UniProt P63104); binding): 8.02 s⁻¹

Cc1ccc(OCC(=O)N[C@@H](Cc2cn(CCNC(=O)c3ccc(S[C@@H]4O[C@H](CO)[C@H](O)[C@H](O)[C@H]4O)cc3)nn2)C(=O)NCCO)cc1
binding stoichiometry (lecA; isothermal titration calorimetry; concentration not given): 0.8 ± 0.1

C=C1C(=O)O[C@@H]2[C@H]3C(CO)=CC(=O)C3=C(C)C[C@H](O)[C@@H]12
number of binding sites (Alpha-glucosidase MAL12 (MAL12, Saccharomyces cerevisiae S288c, UniProt P53341); fluorescence quenching; concentration not given, 298 K): 1.04

Cn1ccc(-c2cc(Cl)c(Cl)c3[nH]c4c(c23)CN(C(=O)CO)CC4)n1
binding (Cyclic GMP-AMP synthase (CGAS, Homo sapiens, UniProt Q8N884); surface plasmon resonance; concentration not given, added: dsDNA): no binding

CC[C@H](C)[C@H](NC(C)=O)C(=O)N[C@H]1CSSC[C@@H](C(=O)N[C@@H](CC(C)C)C(N)=O)NC(=O)[C@H](CCCNC(=N)N)NC(=O)[C@H](Cc2c[nH]cn2)NC(=O)[C@H](C)NC(=O)CN(C)C(=O)[C@H](Cc2c[nH]c3ccccc23)NC(=O)[C@H](CC(=O)O)NC(=O)[C@H](CCC(N)=O)NC(=O)[C@H](Cc2cn(C)c3ccccc23)NC(=O)[C@H](C(C)C)NC1=O
relative association rate constant (Complement C3, C3b fragment (Homo sapiens, UniProt P01024); SPR; 25 °C; reference: [Trp(Me)4]-Ac-compstatin): 1.3

COCCOCCOc1cc(-c2cn([C@H]3[C@H](O)[C@@H](O)[C@H](n4cc(-c5ccc(O[C@@H]6O[C@H](CO)[C@H](O)[C@H](O)[C@H]6O)cc5)nn4)O[C@@H]3CO)nn2)c(OCCOCCOC)cc1-c1cn([C@H]2[C@H](O)[C@@H](O)[C@H](n3cc(-c4ccc(O[C@@H]5O[C@H](CO)[C@H](O)[C@H](O)[C@H]5O)cc4)nn3)O[C@@H]2CO)nn1
–TΔS (lecA; ITC; 5% DMSO): 0.4 ± 0.1 kcal/mol

O=C(c1cc2c(s1)CCCCC2)N1CCC(n2c(=O)[nH]c3ccccc32)CC1
current ratio (Short transient receptor potential channel 6 (Trpc6, Mus musculus, UniProt Q61143, E671C); ion current, agonist, whole-cell patch clamp; E671C mutant; reference: 3 µM over 1 µM): 6.1 ± 0.46

Cc1ccc2ccc3ccc(C)nc3c2n1.Cc1ccc2ccc3ccc(C)nc3c2n1.O.[Cl-].[Cl-].[Cl-].[Yb+3]
ΔG° (Albumin (ALB, Bos taurus, UniProt P02769); fluorescence quenching; 290 K): -8.119 ± 0.0143 kcal/mol

CC1=C(O)C(=O)C=C2C1=CC=C1[C@@]2(C)CC[C@@]2(C)[C@@H]3C[C@](C)(C(=O)NCCOCCOCCOCCOCC(=O)N[C@H](C(=O)N4C[C@H](O)C[C@H]4C(=O)N[C@@H](C)c4ccc(-c5scnc5C)cc4)C(C)(C)C)CC[C@]3(C)CC[C@]12C
protein level (Nuclear receptor subfamily 4 group A member 1 (NR4A1, Homo sapiens, UniProt P22736); protein degradation, degrader, immunoblotting; M229 melanoma cells; concentration not given, 16 h): decreased

CC(C)CC(=N)NCCC[C@H](N)C(=O)O
kinact/KI (Nitric oxide synthase, inducible (Nos2, Mus musculus, UniProt P29477); enzyme activity, inhibitor): 1.45 M⁻¹ s⁻¹

O=C(c1ccc(O)cc1)C1(O)Oc2cc(O)cc(O)c2C1=O (stereo not drawn)
Km (laccase (Trametes versicolor); substrate; product formation): 8.29 ± 0.401 mM

COC(=O)CCSc1nc2n(n1)C(c1cccc(OC)c1)C(C(=O)Nc1cncc(C)c1)=C(C)N2 (stereo not drawn)
inhibition (Serine/threonine-protein kinase mTOR (MTOR, Homo sapiens, UniProt P42345); enzyme activity, inhibitor, TR-FRET; 0.1 µM): 74.8%

OC(Cc1cc(-c2ccc(C(O)C(F)(F)F)s2)sc1-c1ccc(-c2sc(-c3ccc(C(O)C(F)(F)F)s3)cc2CC(O)C(F)(F)F)s1)C(F)(F)F (stereo not drawn)
Kd ratio (Microtubule-associated protein tau, 0N4R isoform, aggregated (MAPT, Homo sapiens, UniProt P10636); binding, fluorescence; 30% sucrose tau fraction; reference: 30% over 20% fraction): 49

O=C([O-])CN1CCN(CC(=O)[O-])CCN(C(CCC(=O)NCCCCCN(CCCC[C@H](NC(=O)N[C@@H](CCC(=O)O)C(=O)O)C(=O)O)C(=O)c2ccc(I)cc2)C(=O)O)CCN(CC(=O)[O-])CC1.[68Ga+3] (stereo partly drawn)
tumour-to-background ratio (Glutamate carboxypeptidase 2 (FOLH1, Homo sapiens, UniProt Q04609); PET/CT; human, prostate lesion; reference: normal liver): 9.58

[11CH3]N1CCN(CCCOc2ccc(=O)n(-c3ccc(Cl)c(Cl)c3)n2)CC1
non-specific binding share (Sigma non-opioid intracellular receptor 1 (Sigmar1, Mus musculus, UniProt O55242); radiotracer; mouse BALB/c, brain; dose not given, added: self-blocking 2.88 mg/kg): ~40%

CNc1ccccc1C(=O)O[C@H]1C[C@H](n2cnc3c(N)ncnc32)O[C@@H]1COP(=O)(O)OP(=O)(O)O
donor-acceptor distance (Unconventional myosin-Va (Gallus gallus, UniProt Q02440, D297C/G292C/I296C/S293C/V295G); FRET; compound complex; 25 °C, added: 2 mM MgCl2): 20 Å

C=C1CCN2C(=O)COc3cccc(c3)C(CCc3ccc(OC)c(OC)c3)OC(=O)C3CCCCN3C(=O)C(=O)C(C)(C)COC(=O)C(C)NC(=O)C2C1 (stereo not drawn)
recruitment (FKBP1A/MAPRE1 (Homo sapiens, UniProt P62942+Q15691); FKBP12-MAPRE1 proximity, TR-FRET; concentration not given; reference: DMSO): 0%

CC(=O)N[C@@H](CO)C(=O)N[C@@H](CC(C)C)C(=O)N[C@@H](CCC(=O)O)C(=O)N[C@@H](CCC(=O)O)C(=O)N1CCC[C@H]1C(=O)N[C@@H](Cc1c[nH]cn1)C(=O)N[C@@H](COP(=O)(O)O)C(=O)N1CCC[C@H]1C(=O)N[C@@H](CCC(=O)O)C(=O)N[C@H](C(=O)NCC(=O)N[C@@H](CCC(=O)O)C(=O)N[C@@H](CCCCN)C(=O)N[C@H](C(=O)N[C@H](C(=O)N[C@@H](C)C(=O)NCC(=O)N[C@@H](CCC(=O)O)C(=O)N[C@H](C(=O)N[C@@H](CC(N)=O)C(N)=O)C(C)C)C(C)C)C(C)C)[C@@H](C)O
ΔG (Kelch-like ECH-associated protein 1, Kelch domain (KEAP1, Homo sapiens, UniProt Q14145); isothermal titration calorimetry; Kelch domain; pH 7, 298.15 K): -7.95 ± 0.1 kcal/mol

O=C(CCl)N(CCNC(=O)C(F)(F)F)c1ccc([N+](=O)[O-])cc1
modified species fraction (Glutathione S-transferase omega-1 (GSTO1, Homo sapiens, UniProt P78417); LC-MS/MS, item: active site Cys32 peptide; 10 µM, 30 min, GSTO1 50 µM): 100%

O=C(N[C@@H](Cc1coc2ccccc12)B(O)O)[C@@H]1C[C@H]2CC[C@@H]1O2
enzyme activity (Proteasome component C5/PSMB8 (Homo sapiens, UniProt P20618+P28062); Western blot; mouse, U266B1 xenograft, tumour; oral, 0.3 to 30 mg/kg single): decreased

CC[C@H](C)[C@H](NC(C)=O)C(=O)N[C@H]1CSSC[C@@H](C(=O)N[C@H](C(N)=O)[C@@H](C)O)NC(=O)[C@H](CCCNC(=N)N)NC(=O)[C@H](Cc2c[nH]cn2)NC(=O)[C@@H]2CCCN2C(=O)CNC(=O)[C@H](Cc2c[nH]c3ccccc23)NC(=O)[C@H](CC(=O)O)NC(=O)[C@H](CCC(N)=O)NC(=O)[C@H](Cc2cn(C)c3ccccc23)NC(=O)[C@H](C(C)C)NC1=O
−TΔS (Complement C3 (Homo sapiens, UniProt P01024); ITC; pH 7.4, 25 °C): 5.2 kcal/mol

O=C(COCc1ccccc1)N[C@@H](Cc1cn(CCNC(=O)c2ccc(S[C@@H]3O[C@H](CO)[C@H](O)[C@H](O)[C@H]3O)cc2)nn1)C(=O)NCCO
−TΔS (lecA; binding, isothermal titration calorimetry; 25 °C): 4.95 ± 0.0717 kcal/mol

CC[C@H](C)[C@H](NC(=O)[C@H](CCCNC(=N)N)NC(=O)[C@H](CCCNC(=N)N)NC(=O)[C@H](C)NC(=O)[C@H](CC(C)C)NC(=O)[C@H](CCCNC(=N)N)NC(=O)[C@H](C)NC(=O)[C@H](Cc1c[nH]c2ccccc12)NC(=O)[C@H](CCCCN)NC(=O)[C@H](CCC(=O)O)NC(=O)[C@H](CCC(=O)O)NC(=O)[C@@H](NC(=O)[C@H](CO)NC(=O)[C@H](C)NC(C)=O)[C@@H](C)O)C(=O)N[C@@H](C)C(=O)NCC(N)=O
binding enthalpy (Histone chaperone ASF1A; isothermal titration calorimetry; concentration not given, pH 7.5, 20 °C): -11.7 ± 0.4 kcal/mol

Cc1ccc2c(c1)/C(=N/N=C/c1ccc(OCc3cccc(F)c3)cc1)C(=O)N2
remaining activity (Amine oxidase [flavin-containing] A (MAOA, Homo sapiens, UniProt P21397); enzyme activity, inhibitor; 10 µM): 84.4%

COc1ccc(C(=O)/C=C/c2ccc(O)cc2)c(O)c1CC=C(C)C
MAO-B inhibitory potency (Amine oxidase [flavin-containing] B (Maob, Rattus norvegicus, UniProt P19643); inhibitor; concentration not given, added: benzylamine; reference: xanthoangelol): ~15 fold

COc1cc(C2CC(=O)Nc3nc(N)[nH]c(=O)c32)ccc1O (stereo not drawn)
kcat/Km (uncharacterized protein (Leishmania donovani, UniProt A0A3Q8IA09); glutamine hydrolysis, inhibitor; 100 µM, added: glutamine substrate): 0.0158 M⁻¹ s⁻¹

A few entries again:
[11CH3]N1CCN(CCCOc2ccc(=O)n(-c3ccc(Cl)c(Cl)c3)n2)CC1
non-specific binding share (Sigma non-opioid intracellular receptor 1 (Sigmar1, Mus musculus, UniProt O55242); radiotracer; mouse BALB/c, brain; dose not given, added: self-blocking 2.88 mg/kg): ~40%

CNc1ccccc1C(=O)O[C@H]1C[C@H](n2cnc3c(N)ncnc32)O[C@@H]1COP(=O)(O)OP(=O)(O)O
donor-acceptor distance (Unconventional myosin-Va (Gallus gallus, UniProt Q02440, D297C/G292C/I296C/S293C/V295G); FRET; compound complex; 25 °C, added: 2 mM MgCl2): 20 Å
